Experimental data gathered from unrelated publications.
A part holds a random share of what one study measured.
UniProt Q04912, sequence (whole entry, looked up): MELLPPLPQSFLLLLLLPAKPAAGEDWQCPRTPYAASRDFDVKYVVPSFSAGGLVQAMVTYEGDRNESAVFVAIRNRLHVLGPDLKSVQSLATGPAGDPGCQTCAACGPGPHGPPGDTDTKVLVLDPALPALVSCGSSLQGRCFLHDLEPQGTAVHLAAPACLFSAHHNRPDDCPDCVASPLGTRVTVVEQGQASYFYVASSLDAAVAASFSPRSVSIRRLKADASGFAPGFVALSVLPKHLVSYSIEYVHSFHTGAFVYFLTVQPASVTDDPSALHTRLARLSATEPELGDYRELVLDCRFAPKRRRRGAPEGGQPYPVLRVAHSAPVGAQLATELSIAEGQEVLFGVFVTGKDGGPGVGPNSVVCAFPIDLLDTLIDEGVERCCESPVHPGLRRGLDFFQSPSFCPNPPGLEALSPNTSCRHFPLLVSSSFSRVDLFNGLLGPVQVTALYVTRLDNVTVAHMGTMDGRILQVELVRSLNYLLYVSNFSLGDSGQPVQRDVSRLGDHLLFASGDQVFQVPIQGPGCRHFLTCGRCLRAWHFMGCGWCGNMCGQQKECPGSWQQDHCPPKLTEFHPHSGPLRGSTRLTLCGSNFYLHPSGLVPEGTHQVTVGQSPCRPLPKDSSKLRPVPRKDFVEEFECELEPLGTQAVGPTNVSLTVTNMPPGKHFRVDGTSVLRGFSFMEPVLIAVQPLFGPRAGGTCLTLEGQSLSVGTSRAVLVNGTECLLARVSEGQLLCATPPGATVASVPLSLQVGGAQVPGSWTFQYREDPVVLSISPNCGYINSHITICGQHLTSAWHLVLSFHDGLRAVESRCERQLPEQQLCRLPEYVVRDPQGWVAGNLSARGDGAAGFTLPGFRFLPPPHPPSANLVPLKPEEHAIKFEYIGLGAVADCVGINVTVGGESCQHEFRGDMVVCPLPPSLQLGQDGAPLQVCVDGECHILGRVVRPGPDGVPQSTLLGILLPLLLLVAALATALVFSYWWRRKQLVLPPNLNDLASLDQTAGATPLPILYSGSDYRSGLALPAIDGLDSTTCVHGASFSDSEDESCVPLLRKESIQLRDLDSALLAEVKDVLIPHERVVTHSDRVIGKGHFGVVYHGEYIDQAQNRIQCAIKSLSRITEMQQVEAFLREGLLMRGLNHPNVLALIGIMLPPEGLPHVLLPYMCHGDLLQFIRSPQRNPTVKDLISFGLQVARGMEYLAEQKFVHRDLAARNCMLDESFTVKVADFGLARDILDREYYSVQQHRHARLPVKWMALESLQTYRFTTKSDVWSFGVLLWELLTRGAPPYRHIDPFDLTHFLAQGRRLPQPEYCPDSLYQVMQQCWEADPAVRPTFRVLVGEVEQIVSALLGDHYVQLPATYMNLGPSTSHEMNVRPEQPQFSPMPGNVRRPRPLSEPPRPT

Study 1
Target: Runt-related transcription factor 1, full length (RUNX1, Homo sapiens, UniProt Q01196-8, residues 1-480)
Technique: protein-binding microarray
Molecule type: hairpin DNA
Medium: in vitro
Tested at: not given
Notes: whole hairpin DNA, median over replicate spots
Reference: not given
Direction: higher = stronger binding
Strand	median fluorescence [a.u.]
GAGGCCTGTCGCGGTTGGCCTCCTGGCCAACCGCGACAGGCCTCACACTC (5mC at 12 32 34)	1810
CTCAGATCTGTGGGCTGGACTCCTGTCCAGCCCACAGATCTGAGACACTC	1960
GAGGCCTGTCGGGGTTGGCCTCCTGGCCAACCCCGACAGGCCTCACACTC	2060
CTCAGTTCTGCGGGCTGGACTCCTGTCCAGCCCGCAGAACTGAGACACTC (5mC at 33)	1730
CTCAGTTCTGGGGGCTGGACTCCTGTCCAGCCCCCAGAACTGAGACACTC (5mC at 34)	1860
CTCAGTTCTGTGGGCCGGACTCCTGTCCGGCCCACAGAACTGAGACACTC (5mC at 16 28)	1910
GAGGCCGAACCGCAACAGCCTCCTGGCTGTTGCGGTTCGGCCTCACACTC (5mC at 38)	3800
CTCAGTTCTGTGGGCGGGACTCCTGTCCCGCCCACAGAACTGAGACACTC (5mC at 15 29)	2250

Study 2
Target: Centromere-binding protein 1, full length, N-terminal tag (CBF1, Saccharomyces cerevisiae, UniProt P17106, residues 1-351)
UniProt P17106, sequence (whole entry, looked up): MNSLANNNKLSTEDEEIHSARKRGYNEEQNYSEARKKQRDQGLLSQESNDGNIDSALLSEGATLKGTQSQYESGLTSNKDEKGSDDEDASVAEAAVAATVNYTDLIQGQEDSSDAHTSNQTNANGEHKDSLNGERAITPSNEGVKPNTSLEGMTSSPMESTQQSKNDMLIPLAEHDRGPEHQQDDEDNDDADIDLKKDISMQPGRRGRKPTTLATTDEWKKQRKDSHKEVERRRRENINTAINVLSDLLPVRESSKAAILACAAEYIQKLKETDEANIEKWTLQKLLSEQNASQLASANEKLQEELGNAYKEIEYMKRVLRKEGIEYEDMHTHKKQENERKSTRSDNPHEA
Technique: protein-binding microarray
Molecule type: double-stranded DNA, one strand shown
Medium: in vitro
Tested at: 0.8 µM
Notes: whole 60-bp probe, no competitor
Direction: higher = stronger binding
Constant ends, left off below: … GTCTTGATTCGCTTGACGCTGCTG
Strand	fluorescence intensity [a.u.]
CTATCGATCATACAATACATCAGGACCTGCGTATTC	556
CTATAAATTGAACGTCACGGTAATACTACATAATTC	601
GAAAAGAATCTCTTGCACGTGACGGTTTACTAATAG	12500
CTAGTGACTATTGAGCACGTGAGTATACGTGATTTC	6620
GAACAACTGGCTGAACACGTGCCCCTCTATCTGTAG	13300
CTACATGTCGAAACGCACGCTGTTGCATGAAAATTC	549
GAATTTAAGTTGTTTCATATGATGTACTTTTCTTAG	514
GAAATTCCTCGCCATCACCATGCGCTGTTTTTATAG	517

Study 3
Target: Prothrombin, mature alpha-thrombin (F2, Homo sapiens, UniProt P00734)
Technique: aptamer microarray, sandwich
Molecule type: DNA with 2'F-ANA
Medium: in vitro
Tested at: 200 nM
Notes: whole 15-mer aptamer, many near background
With: Cy3 exosite-II aptamer, 400 nM
Direction: higher = stronger binding
Strand: GGTTGGTGTGGTTGG
Modification	mean fluorescence intensity [a.u.]
2'F-ANA at 3 7 11 12 14	878
2'F-ANA at 4 7 13	272
2'F-ANA at 3 4 5 7 11 12	170
2'F-ANA at 3 5 8 10 13 15	56.2
2'F-ANA at 5 8 9 13	57.1
2'F-ANA at 1 2 3 4 5 6 8 9 11 13 14 15	53.9
2'F-ANA at 1 3 4 5 6 7 8 11 12 15	122
2'F-ANA at 1 2 3 4 6 7 8 9 13 15	115

Single results of other studies
Compound	target	assay	conditions	how to read	quantity	value
CN(C)S(=O)(=O)c1ccc2c(c1)/C(=C/c1cc3c([nH]1)CCCC3)C(=O)N2	Macrophage-stimulating protein receptor (MST1R, Homo sapiens, UniProt Q04912)	enzyme activity, inhibitor	0.5 µM	reference: control	remaining activity	101%

Repeated from above (study 1):
Strand	median fluorescence [a.u.]
CTCAGTTCTGCGGGCTGGACTCCTGTCCAGCCCGCAGAACTGAGACACTC (5mC at 33)	1730
CTCAGTTCTGTGGGCCGGACTCCTGTCCGGCCCACAGAACTGAGACACTC (5mC at 16 28)	1910
GAGGCCTGTCGCGGTTGGCCTCCTGGCCAACCGCGACAGGCCTCACACTC (5mC at 12 32 34)	1810
CTCAGATCTGTGGGCTGGACTCCTGTCCAGCCCACAGATCTGAGACACTC	1960
